Results from different studies.
Parts stem from different laboratories: compare values within a part only. Positions count from the first letter of the parent shown.

Block 1 — technique: protein binding microarray; molecule type: double-stranded DNA, one strand shown; matrix: in vitro; concentration: not given; relative to: not given; direction: higher = stronger binding
Target: Histone acetyltransferase KAT6A, winged helix 1, GST fusion (KAT6A, Homo sapiens, UniProt Q92794, residues 1-85)
Setting: 8-mer, flanks averaged, mean of 2 arrays, mostly near background
Residues (chain): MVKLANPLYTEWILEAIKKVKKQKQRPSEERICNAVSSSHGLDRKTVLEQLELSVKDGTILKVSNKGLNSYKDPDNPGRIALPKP
Oligonucleotide | E-score
CGGCTCCC | 0.303
GACGGTAC | 0.263
AAAGCATA | -0.0228
ATACGCGC | 0.368
AGGGGCTG | -0.275
CGCACGCC | 0.299
TAAAACCA | -0.0977
AGACCATA | -0.106
AGGCCCTC | -0.0179
GACAGCGA | 0.108
AACATAAT | -0.0428
CAGTGGGA | -0.215
GGTACTGA | 0.109
CACCTTCA | -0.0131
CAAACGAA | -0.0747
GAAGAATA | -0.251
CTGTGTCA | -0.0824
CATCGACG | 0.13
ACCCCACG | -0.0717

Block 2 — technique: RNA Bind-n-Seq; molecule type: RNA; matrix: in vitro; concentration: 200 nM; setting: whole 134-nt RNA, ends assumed; added: 150 mM KCl; relative to: input library; direction: higher = stronger binding
Target: Ras GTPase-activating protein-binding protein 1, full length (G3BP1, Homo sapiens, UniProt Q13283)
UniProt Q13283, sequence (whole entry, looked up): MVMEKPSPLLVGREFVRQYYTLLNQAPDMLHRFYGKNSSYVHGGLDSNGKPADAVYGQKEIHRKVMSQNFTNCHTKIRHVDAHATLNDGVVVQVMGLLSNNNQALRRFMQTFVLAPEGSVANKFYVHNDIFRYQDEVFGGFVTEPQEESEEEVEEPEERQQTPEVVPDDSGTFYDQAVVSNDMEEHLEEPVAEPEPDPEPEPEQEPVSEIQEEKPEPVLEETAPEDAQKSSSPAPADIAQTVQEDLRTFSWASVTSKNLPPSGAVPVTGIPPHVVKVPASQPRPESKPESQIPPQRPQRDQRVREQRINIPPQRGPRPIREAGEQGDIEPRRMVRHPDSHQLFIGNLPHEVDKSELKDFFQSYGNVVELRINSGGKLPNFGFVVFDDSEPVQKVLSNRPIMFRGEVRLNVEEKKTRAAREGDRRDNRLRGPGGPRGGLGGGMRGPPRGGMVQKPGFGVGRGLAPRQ
Shared flanks, not repeated: GGGAGUUCUACAGUCCGACGAUC … UGGAAUUCUCGGGUGUCAAGG
Oligonucleotide | log2 enrichment
UUGCUUCAAGAAGAUCCCUAAGCUGUAGAACAUUUUAACGUUGAUGCCACAACGCAGAUUGAUGCCUUGUAGAUGGAGCUUGCAGAUGGA | 0.507
AGUCCUGUGCUACACAUCGUAUGUACCGAAUCGGGUUUUUGGGUUUGGGUUUUUGGGAAAGUAUUAUGUUACGCCGUUCGGAUCUGCACU | -0.34
GCAGGAAGUAAAAACAAAUGGAAAUGCUUCGGAUAGUGGCAGGGGUGGGGGUUGCUAAGGAAAGGGUGAAAUGGGAGUGGGUAAAGAGUU | 0.618
CCUGUGCUACACAUCGUAUGUACCGAAUCGGGGUUUUUGGGGUUUUUGGGGUUUUUGGGGAAAGUAUUAUGUUACGCCGUUCGGAUCUGC | 0.202
AGUCCUGUGCUACACAUCGUAUGUACCGAAUCAAACCCAAACCCAAAUUUUUUUAAAAAAGUAUUAUGUUACGCCGUUCGGAUCUGCACU | -0.597
UCCUUCCUUUUUUUGUCUUAAACAUAGGACAUGGAUUUGAUUGACAUACUUUGGAGGCAAGAUAUAGAUCUUGGAGUAAGUCGAGAAGUA | -0.21
CCUGUGCUACACAUCGUAUGUACCGAAUCGGGGCCCCCCGGGCCCCCCGGGGCCCCCCGGGAAAGUAUUAUGUUACGCCGUUCGGAUCUG | -0.677
UGGGAGGUGGAUUUUGUUUAUUUUUCUAGCUCAUUUCCAGGGGUGGGAAUUUUUUUUUAAUAUGUGUCAUGAAUAAAGUUGUUUUUGAAA | 0.186
AGUCCUGUGCUACACAUCGUAUGUACCGAAUCGGGGUUUUGGGUUUUGGGGUUUUGGGAAAGUAUUAUGUUACGCCGUUCGGAUCUGCAC | -0.13
CAAGUCCUGUGCUACACAUCGUAUGUACCGAAUCGGGGUGGGGAAAGGGGAGGGGAAAGUAUUAUGUUACGCCGUUCGGAUCUGCACUUC | 1.16
UAACUUUAGAGGAGGAUCUGAUGGAUAUGGCACUGGACGUGGAUUUGGGGAUGGCUAUAAUGGGUAUGGAGGAGGACCUGGAGGUGGCAA | 0.48
GCAGGAAGUAAAAACAAAUGGAAAUGCUUCGGAUAGUGGCAGGGGUGGGGGUUGCUAAGGAAAGGGUGGGAUGGGAGUGGGUAAAGAGAU | 1.2
UGGCCCUGGUGGCAUGCGGGGAGGAAGAGGUGGCCUCAUGGAUCGUGGUGGUCCCUGUGGAAUGUUCAGAGGUGGCCGUGGUGGAGACAG | -0.0525
CCUGUGCUACACAUCGUAUGUACCGAAUCGGAAAAAAAGGGGAAAAAAAGGAAAAAAAGGGAAAGUAUUAUGUUACGCCGUUCGGAUCUG | -0.784

Block 3 — technique: protein-binding microarray; molecule type: double-stranded DNA, one strand shown; matrix: in vitro; concentration: not given; direction: higher = stronger binding
Target: Myc proto-oncogene protein, bHLH-zipper, MAX partner unstated (MYC, Homo sapiens, UniProt P01106, residues 368-449)
UniProt P01106, sequence (368-449, looked up): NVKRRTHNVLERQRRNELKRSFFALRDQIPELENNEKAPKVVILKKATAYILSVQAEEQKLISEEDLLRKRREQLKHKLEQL
Setting: k-mer, scored over probes, only values ≥0.25
Oligonucleotide | E-score
ACGCGGGG | 0.381
CGAGCACA | 0.329
TGCGGACA | 0.277
GCAGGCGC | 0.272
AGCCCCAC | 0.326
CGCGCGGC | 0.364
CTCCCACC | 0.275
ATGCGAGG | 0.251
ACGTGCAC | 0.441
CGTGGCCA | 0.413
GTCCACGA | 0.344
CATGTAAC | 0.254
AGCGTGGG | 0.404
GCCCACCC | 0.372
GACCTCGC | 0.287
AGGGCGTG | 0.31
ACACGCCC | 0.326

Block 4 — target: CCND2, cyclin fold, Cln2 fusion (human); technique: yeast growth competition, sequencing; matrix: yeast; setting: weak parent motif; relative to: not given; direction: higher = stronger binding
Parent: CDKN1A docking peptide (human); SKACRRLFGPVDS; partner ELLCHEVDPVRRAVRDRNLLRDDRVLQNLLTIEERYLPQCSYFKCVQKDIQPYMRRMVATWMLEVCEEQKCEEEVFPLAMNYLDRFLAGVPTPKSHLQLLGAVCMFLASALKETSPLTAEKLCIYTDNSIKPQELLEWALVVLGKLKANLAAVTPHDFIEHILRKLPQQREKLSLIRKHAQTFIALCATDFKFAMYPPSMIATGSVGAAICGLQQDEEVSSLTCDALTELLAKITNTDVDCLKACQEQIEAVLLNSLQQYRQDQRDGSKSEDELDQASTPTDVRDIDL
Change | normalised enrichment score
R6G | -0.111
K2D | 0.398
D12S | 0.197
F8Y | 0.0147
D12P | 0.0465
F8L | -0.444
D12H | 0.107
R5W | 0.0181
R6S | 0.0647
C4S | 0.207
A3C | 0.385
L7S | -0.0711
R5K F8L | -0.145
P10D | 0.685
R5M | -0.00793
D12N | 0.511

Some of these lines once more (block 4):
Change | normalised enrichment score
C4S | 0.207
A3C | 0.385
L7S | -0.0711
R5K F8L | -0.145
P10D | 0.685
R5M | -0.00793
